Published values of several laboratories.
Each line is one published result; not all experiments were run side by side.
Cell line: HOP-92

CCOc1ccc(-c2nc3cc(-c4nc5cc(N6CCN(C)CC6)ccc5[nH]4)ccc3[nH]2)cc1OCC — growth percent (SRB; 10 µM, 48 h): 48.8%
Cc1n(Cc2ccc3ccccc3c2)c2ccccc2[n+]1Cc1ccc2ccccc2c1.[Br-] — TGI (NCI60 five-dose screen): 2.06 µM
O=C(Nc1nnc2n3c(Cc4ccccc4)n[nH]c3nc(-c3ccc(Cl)cc3)c1-2)c1ccccc1 — cell growth (SRB; 10 µM, NCI60 single-dose screen; relative to: untreated): 98.2%
O=c1ccn(Cc2cn(-c3cc4ccccc4oc3=O)nn2)c(=O)[nH]1 — growth percentage (NCI60 single-dose screen; 10 µM): 88.4%
O=C(Nc1nnc2[nH]c(=S)[nH]c(-c3ccc(Cl)cc3)c1-2)c1ccccc1 — cell growth (SRB; 10 µM, NCI60 single-dose screen; relative to: untreated): 90.4%
COc1ccc(OC)c(-c2nc3ccc(-c4nc5ccc(N6CCN(C)CC6)cc5[nH]4)cc3[nH]2)c1 — growth percent (SRB; 10 µM, 48 h): 77.1%
[Br-].c1ccc2cc(Cn3c[n+](Cc4ccc5ccccc5c4)c4ccccc43)ccc2c1 — TGI (NCI60 five-dose screen): 1.57 µM
O=c1ccn(Cc2cn(-c3c4ccccc4nc4ccccc34)nn2)c(=O)[nH]1 — growth percentage (NCI60 single-dose screen; 10 µM): 84.7%
COC(=O)/C=C1\C(=O)C=C2C3CC4CC(CCC4(C)N21)C3(C)NC(C)=O (stereo not shown) — IC50 (cell growth, NCI screen): 18 µM
CCCN1CCN(c2ccc3[nH]c(-c4ccc5[nH]c(-c6ccc(OCC)c(OCC)c6)nc5c4)nc3c2)CC1 — growth percent (SRB; 10 µM, 48 h): 40.5%
COCCOCCOCc1n(Cc2ccc3ccccc3n2)c2ccccc2[n+]1Cc1ccc2ccccc2c1.[Br-] — TGI (NCI60 five-dose screen): 0.718 µM
O=C(Nc1nnc2n3c(=S)[nH][nH]c3nc(-c3ccc(Cl)cc3)c1-2)c1ccccc1 — cell growth (SRB; 10 µM, NCI60 single-dose screen; relative to: untreated): 86.3%
C#C[C@@]1(O)[C@@H](CO)O[C@@H](n2ccc3c(N)ncnc32)[C@@H]1O — TGI (SRB; NCI-60 screen): 5.56 µM
CCCCCCCCCCCCCCCCCCOc1ccc(CC(=O)OCC[N+]2(C)CCCC2)cc1 — growth inhibition (SRB; 10 µM): < 0%
CCCN1CCN(c2ccc3[nH]c(-c4ccc5[nH]c(-c6cc(OC)c(OC)c(OC)c6)nc5c4)nc3c2)CC1 — growth percent (SRB; 10 µM, 48 h): 70.5%
O=C(Nc1nnc2n3c(nc(-c4ccc(Cl)cc4)c1-2)SCC3=O)c1ccccc1 — cell growth (SRB; 10 µM, NCI60 single-dose screen; relative to: untreated): 85.5%
CCCCN1CCN(c2ccc3[nH]c(-c4ccc5[nH]c(-c6cc(OC)c(OC)c(OC)c6)nc5c4)nc3c2)CC1 — growth percent (SRB; 10 µM, 48 h): 50%
O=C1NC(c2ccccc2)(c2ccccc2)C(=O)N1Cc1cn(-c2c3ccccc3nc3ccccc23)nn1 — growth percentage (NCI60 single-dose screen; 10 µM): 67.3%
Cn1cncc1C1=CN(c2ncnc3[nH]cnc23)CCS1 — GI50 (lung cancer): 5.8 µM
Cc1cc(C)n(-c2nc(-c3ccc(Cl)cc3)c3c(NC(=O)c4ccccc4)nnc-3[nH]2)n1 — cell growth (SRB; 10 µM, NCI60 single-dose screen; relative to: untreated): 75.6%
CN1CCN(c2ccc3[nH]c(-c4ccc5[nH]c(-c6ccc(C(F)(F)F)cc6)nc5c4)nc3c2)CC1 — growth percent (SRB; 10 µM, 48 h): 59.3%
O=C1NC(c2ccccc2)(c2ccccc2)C(=O)N1Cc1cn(-c2cc3ccccc3oc2=O)nn1 — growth percentage (NCI60 single-dose screen; 10 µM): 76.6%

Repeated from above:
CCCCN1CCN(c2ccc3[nH]c(-c4ccc5[nH]c(-c6cc(OC)c(OC)c(OC)c6)nc5c4)nc3c2)CC1 — growth percent (SRB; 10 µM, 48 h): 50%
O=C1NC(c2ccccc2)(c2ccccc2)C(=O)N1Cc1cn(-c2c3ccccc3nc3ccccc23)nn1 — growth percentage (NCI60 single-dose screen; 10 µM): 67.3%
Cn1cncc1C1=CN(c2ncnc3[nH]cnc23)CCS1 — GI50 (lung cancer): 5.8 µM
